Experimental data from different studies.
Lines come from different studies, so protocols differ. Numbers after ± are the reported error.
DRD3: D(3) dopamine receptor (DRD3, Homo sapiens, UniProt P35462)
TNKS2: Poly [ADP-ribose] polymerase tankyrase-2 (TNKS2, Homo sapiens, UniProt Q9H2K2)
F13A1: Coagulation factor XIII A chain (F13A1, Homo sapiens, UniProt P00488)
CDK2 with cyclin A: Cyclin-dependent kinase 2, with cyclin A (CDK2, Homo sapiens, UniProt P24941)

CCCN(CCC)C(=O)c1c(C)[nH]c(C)c1S(=O)(=O)Nc1ccc(C(F)(F)F)c(Cl)c1 — IC50 (DRD3; β-arrestin recruitment, antagonist, PathHunter; together with: dopamine EC80): > 100 µM
O=c1[nH]c2c(nnn2C2CCCCC2)c2ccccc12 — IC50 (TNKS2; ADP-ribosyltransferase activity, inhibitor, NAD+ consumption fluorescence): 1.29 µM
[Cl-].[Cl-].[Zn+2] — IC50 (HVCN1 (Homo sapiens, UniProt Q96D96, E119H); whole-cell voltage clamp; 80 mV, open probability 0.8): 0.51 µM
CNC(=O)[C@@H](NC(=O)[C@H](CC(C)C)[C@H](O)C(=O)NO)C(C)(C)C — IC50 (Matrix metalloproteinase-9, proteoglycan form (Gallus gallus, UniProt Q9DE15); enzyme activity, inhibitor, fluorogenic peptide cleavage; 1.5 h preincubation, pH 7.5, 25 °C, together with: MCA-PLGL-Dpa-AAR-NH2 1.0 µM): 0.01 µM
O=c1[nH]c2c(nnn2-c2ccc(Br)cc2)c2ccccc12 — IC50 (TNKS2; ADP-ribosyltransferase activity, inhibitor, NAD+ consumption fluorescence): > 10 µM
CN1CCC(CNc2ccc3ncc(-c4cccc(OC(F)(F)F)c4)n3n2)CC1 — IC50 (CHRM3 (Homo sapiens, UniProt P20309); antagonist, cell-based): 8.69 µM
CCCCN(CCCC)C(=O)c1c(C)[nH]c(C)c1S(=O)(=O)Nc1ccc(C(F)(F)F)c(Cl)c1 — IC50 (DRD3; β-arrestin recruitment, antagonist, PathHunter; together with: dopamine EC80): > 100 µM
COc1cc2nccc(Oc3ccc(NC(=O)c4cc5c(n(-c6ccccc6)c4=O)CCCC5=O)nc3)c2cc1OC — IC50 (EPHA5 (Homo sapiens, UniProt P54756); cell viability, CellTiter-Glo; Ba/F3 expressing recombinant kinase; 48 h): > 0.1 µM
N#C/C(=C\c1ccc(O)c(O)c1)C(N)=S — IC50 (F13A1; enzyme activity, inhibitor, biotin-pentylamine incorporation; with DTT): > 20 µM
CC(C)(C)NS(=O)(=O)c1cccc(C(=O)N2CC3(CCC4(CC4)CC3)c3cc(NS(C)(=O)=O)ccc32)c1 — IC50 (KIF18A (Homo sapiens, UniProt Q8NI77); inhibitor): 0.061 µM
Cc1ccccc1Cn1nnc2c3ccc(F)cc3c(=O)[nH]c21 — IC50 (TNKS2; ADP-ribosyltransferase activity, inhibitor, NAD+ consumption fluorescence): 0.11 µM
O=C(O)CC(=O)C(=O)O — IC50 (HIF1AN (Homo sapiens, UniProt Q9NWT6, E105A); enzyme activity, inhibitor; pH 7): > 1000 µM
C[C@]12CC[C@@H]3c4ccc(O)cc4C[C@@H](CCCCCCCCC[S+]([O-])CCCC(F)(F)C(F)(F)F)[C@H]3[C@@H]1CC[C@@H]2O (some centres unmarked) — IC50 (PGR (Homo sapiens, UniProt P06401); PR receptor activity, agonist, cell-based): > 10 µM
CN1CCN(c2ccc(Nc3ncc4cc(C#N)c(=O)n(C5CCCC5)c4n3)cc2)CC1 — IC50 (PRKD1 (Homo sapiens, UniProt Q15139)): 0.0747 µM
O=c1[nH]c2c(nnn2C2CCCCC2)c2ccc(F)cc12 — IC50 (TNKS2; ADP-ribosyltransferase activity, inhibitor, NAD+ consumption fluorescence): 1.91 µM
CCN(CC)C(=O)c1c(C)[nH]c(C)c1S(=O)(=O)Nc1ccc(C(F)(F)F)c(Cl)c1 — IC50 (DRD3; Go activation, antagonist, BRET; together with: dopamine): > 100 µM
CC[C@@H]1[C@H](F)C(=O)N[C@@H]1COc1nccc2cc(C(N)=O)c(OC)cc12 — IC50 (MAPK9 (Homo sapiens, UniProt P45984); ATP-site binding, ActivX KiNativ profiling; THP-1 cell lysate; Lys1 JNK2 probe site): > 5 µM
CCc1ccc(Cn2nnc3c4ccc(F)cc4c(=O)[nH]c32)cc1 — IC50 (TNKS2): 0.0288 µM
Cc1[nH]c(C)c(S(=O)(=O)Nc2ccc(C(F)(F)F)c(Cl)c2)c1C(=O)N1CC2(CCC2)C1 — IC50 (DRD3; β-arrestin recruitment, antagonist, PathHunter; together with: dopamine EC80): > 100 µM
O=C(N/N=C/c1ccc(C(F)(F)F)nc1)c1cc2c(s1)CCCC2 — IC50 (dxs (Deinococcus radiodurans, UniProt Q9RUB5); inhibitor): 51.2 ± 3.1 µM
NC(=O)c1ccc(NCCCN2CCOCC2)c([N+](=O)[O-])c1 — Kd (CDK2 with cyclin A): > 100 µM
Cc1[nH]c(C)c(S(=O)(=O)N2CCC(F)(F)C2)c1S(=O)(=O)N1CCC(F)(F)C1 — IC50 (DRD3; β-arrestin recruitment, antagonist, PathHunter; together with: dopamine EC80): > 100 µM
O=C1C(SCCO)=C(SCCO)C(=O)c2ccccc21 — IC50 (F13A1; crosslinking activity; together with: DTT): > 50 µM
Cc1[nH]c(C)c(S(=O)(=O)Nc2ccc(C(F)(F)F)c(Cl)c2)c1S(=O)(=O)Nc1ccc(C(F)(F)F)c(Cl)c1 — IC50 (DRD3; β-arrestin recruitment, antagonist, PathHunter; together with: dopamine EC80): > 100 µM
CC(C)Oc1c(NC(=O)c2ccc(N3C(=O)C[C@H](NC(=O)c4cc(F)c(/N=N/c5c(F)cccc5F)c(F)c4)C3=O)cc2)ccc(C(=O)N/N=C/c2c(Cl)cncc2Cl)c1O — IC50 (DNA gyrase (gyrA/gyrB, Escherichia coli, UniProt P0AES4+P0AES6); DNA supercoiling, inhibitor; 30 min, 37 °C, after 1 h irradiation at 365 nm): > 25 µM
C[C@@H](CC(=O)N1CCCC1)NC(=O)CCS(=O)(=O)Nc1ccc(C(F)(F)F)c(Cl)c1 — IC50 (DRD3; β-arrestin recruitment, antagonist, PathHunter; together with: dopamine EC80): > 100 µM
N#Cc1nc2c(nc1C#N)-c1ccc(Cl)cc1C2=O — IC50 (USP8 (Homo sapiens, UniProt P40818)): 0.22 µM
Cc1[nH]cc(S(=O)(=O)Nc2ccc(C(F)(F)F)c(Cl)c2)c1C(=O)N1CCC(F)(F)C1 — IC50 (DRD3; Go activation, antagonist, BRET; together with: dopamine): > 100 µM
CC(C)C(=O)OCC(=O)[C@@]12O[C@H](C3CCCCC3)O[C@@H]1C[C@H]1[C@@H]3CCC4=CC(=O)C=C[C@]4(C)[C@H]3[C@@H](O)C[C@@]12C — IC50 (RORC (Homo sapiens, UniProt P51449); reporter gene, inhibitor, GAL4 dual-luciferase reporter; HEK293T; 24 h): 2.08 ± 0.4 µM
O=C(Cc1ccccc1[N+](=O)[O-])Nc1ccccc1C(=O)N1CCOCC1 — Kd (CDK2 with cyclin A): > 100 µM
Cc1c(N(C)C)ccc2cc(C(=O)NS(=O)(=O)c3ccccc3-c3ccccc3)oc12 — IC50 (Histone acetyltransferase KAT6A, residues 194-810 (KAT6A, Homo sapiens, UniProt Q92794); enzyme activity, inhibitor): > 20 µM
Cn1cc(-c2ccc(-c3cncc(Cl)c3N3CCC4(CCNC4=O)CC3)cc2)cn1 — log2 fold change (COLO 205; gene expression, microarray, measured: HOXC6 mRNA; concentration not given, 6 h; baseline: untreated cells): 2.51

For quick reference, copied from above:
[Cl-].[Cl-].[Zn+2] — IC50 (HVCN1 (Homo sapiens, UniProt Q96D96, E119H); whole-cell voltage clamp; 80 mV, open probability 0.8): 0.51 µM
CNC(=O)[C@@H](NC(=O)[C@H](CC(C)C)[C@H](O)C(=O)NO)C(C)(C)C — IC50 (Matrix metalloproteinase-9, proteoglycan form (Gallus gallus, UniProt Q9DE15); enzyme activity, inhibitor, fluorogenic peptide cleavage; 1.5 h preincubation, pH 7.5, 25 °C, together with: MCA-PLGL-Dpa-AAR-NH2 1.0 µM): 0.01 µM
